Published values pooled from the literature.
Parts stem from different laboratories: compare values within a part only.

Series 1
Target: RNA binding protein fox-1 homolog 2, RRM domain, GST-SBP tag (RBFOX2, Homo sapiens, UniProt O43251-10, residues 100-194)
Technique: RNA Bind-n-Seq
Molecule type: RNA
Sample: in vitro
Tested at: 365 nM
Setting: natural RNA segment, single round, ends assumed
Relative to: no-protein control
Reading: higher = stronger binding
Quantity: RBNS enrichment (R)
Target sequence (chain): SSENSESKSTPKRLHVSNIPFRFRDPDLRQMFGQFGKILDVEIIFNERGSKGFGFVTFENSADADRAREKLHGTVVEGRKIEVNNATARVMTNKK
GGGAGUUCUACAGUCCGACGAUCUACAUGGAUGUCAGGAGAGCUGCUGCCCUCUUGGCGUGAGUUGCGUAUUCAGGCUGCUUUUGCUGCCUUUGGCCAGAGAGCUGGUUGAAGAUGUUUGUAAUCGUUUUCAGUGGAAUUCUCGGGUGCCAA: 0.174
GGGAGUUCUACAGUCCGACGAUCUGAUCUCUGCAGUUUGCUCCAGCUACCAGUUUCUUUAGGCAGCUCUUUGUCCUCCCUCUGCCCAGAUUUUGAUGUAGUCUAAUUGACAUCCUUCUCUUCCCAACUUUUGUUGGAAUUCUCGGGUGCCAA: 0.391
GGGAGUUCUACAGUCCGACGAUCGCGCCAAAUGGUUUUCUUCUCAAUCUUAAAGCAGUAUACCUUUCCACAGGCUCGUCUGUGUCCCUGCCACUCUGAGUUAUCCAGAAACCACCACCUACAAAUGAGGGGACUGGAAUUCUCGGGUGCCAA: 0.197
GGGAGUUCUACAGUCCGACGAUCACUGAUGAUGCCCAUGAUACAAUUAGAAGUAUGUUAAAGAAGCGUGGGCAUUACAGAGAGCAGAAAGAAAUGAAGAAUCCUCUUCUUACUGAUGGUACCAAAGAAUCAAAUGGAAUUCUCGGGUGCCAA: 2.3
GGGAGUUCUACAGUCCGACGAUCUUAGCAAGAUGAGCUUCUGGGGUCCUUAUGUUGGUAAUGGUGCCAUGUCCAGACCCACAGCAGAGUGAAGUCUGAGUGCUCCUAACAACCCACAGCAGCCACGCUAGAAGUGGAAUUCUCGGGUGCCAA: 0.404
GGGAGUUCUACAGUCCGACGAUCUUUGUAAUUUGCAUUUAUAUACUCAUUUUAAAUGACUUUUCAGUGUUUUUCAUAGUUUAUAAUCUGAUGGCUAACUAACUUUCAAAACAGCUUUUAACUAAGUUUGUUGUUGGAAUUCUCGGGUGCCAA: 0.717
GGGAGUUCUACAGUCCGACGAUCGUUUCCCCAUCCAACUAUUAGUUUCAUACUUUGAAAACUUACUUUCAGAUUAUUCUCAAAGAACACAGUAGCACCUAAAUCUGUUUUCAAUUGGGCUUAAAAAUUGACAUUGGAAUUCUCGGGUGCCAA: 1.07
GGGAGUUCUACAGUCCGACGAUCGGAGAGCAGGUUACUUGGCAACCAUAUUGUCACCUGUACCUGUCACACAUCUUGAAAAAUAAAACGAUAAUAGAACUAGUGACUAAUUUUCCCUUACAGUUCCUGCUUGGUGGAAUUCUCGGGUGCCAA: 0.587
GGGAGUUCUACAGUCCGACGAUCGUGUGUGUAAAAUAUUUCCUAGGAAUAAAUUAGGCACUUUUUAGAAGCAAUGUUAAAUCAUUCAGGUUUUAUUUUCUGCCCUGAAGCAGAAAUUUAAAAAAUGAUAUUGGUGGAAUUCUCGGGUGCCAA: 0.368
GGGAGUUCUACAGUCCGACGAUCCUUUGAGCUAGGGGAGGAGAAUGUAUUAGACUAAAUACAAACUGCGGGGUUGUAAGGGAGUCUCAGAACCUCACUGAAUCCUUCACUCCAGUUAAUGGCACUGCUCACUUUGGAAUUCUCGGGUGCCAA: 0.282
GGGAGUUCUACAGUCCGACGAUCUUUAUUUAUUCAGUCUGGGUUGUAGAACUUUGCAAUCUAAGUUUAUUUUUUGUAAACUAAUAAUUCAUUUGGUGCUGGUCUAUUGAUUGGGGGCCUACUUCUUCAUGGAAUGGAAUUCUCGGGUGCCAA: 0.593
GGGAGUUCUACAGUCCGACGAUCACCUAGUGAUUAAUUGGCUGAGAAAACCCUGGAGUGGAGGGAGGCUCAGAGAUACUGAUAUGGAUGUGGGAGGGCUCUAAAGUUAGAGGUCACCAACUCCACAGAUGAAAUGGAAUUCUCGGGUGCCAA: 0.621

Series 2
Target: RING finger protein unkempt homolog, zinc fingers 1-6, GST-SBP tag (UNK, Homo sapiens, UniProt Q9C0B0, residues 30-357)
UniProt Q9C0B0, sequence (30-357, looked up): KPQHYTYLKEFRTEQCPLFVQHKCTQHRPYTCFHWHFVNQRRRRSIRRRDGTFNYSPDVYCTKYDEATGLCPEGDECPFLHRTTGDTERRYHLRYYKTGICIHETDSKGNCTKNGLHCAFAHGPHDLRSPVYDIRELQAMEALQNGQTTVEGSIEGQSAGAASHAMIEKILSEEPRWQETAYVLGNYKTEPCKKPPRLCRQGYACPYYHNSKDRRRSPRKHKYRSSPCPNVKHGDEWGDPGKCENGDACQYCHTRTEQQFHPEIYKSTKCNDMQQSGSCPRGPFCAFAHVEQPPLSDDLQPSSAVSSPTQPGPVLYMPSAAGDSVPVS
Technique: RNA Bind-n-Seq
Molecule type: RNA
Sample: in vitro
Tested at: not given
Setting: RNA with constant flanks, ends assumed
Relative to: input RNA pool
Reading: higher = stronger binding
Quantity: bound/input enrichment
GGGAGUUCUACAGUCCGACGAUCGAUGUAGAAAUAAUCUUUAAUGAACGUGGCUCUAAGGGAUUCGGGUUCGUAACUUUCGAGAACCGUGCUGAUGCAGACAGGGCCAGGGAGAAAUUACACGGCACCGUGGUAGAGGGCCGUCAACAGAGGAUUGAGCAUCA: 0.378 ratio
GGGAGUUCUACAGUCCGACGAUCCAACAAUUAGAAGCACCUUAUAACAGUGAUACUGUGCUUGUCCACCGAGUUCACAGUUAUUCCGAGCGUCAUGGUCUUAUCAACUUCGGCAUCUAUAAGAGGAUAAAACCCCUACCAACUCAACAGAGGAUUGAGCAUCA: 0.22 ratio
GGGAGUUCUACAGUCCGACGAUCUGAGGUUUGGCAGAGUGCUGUUGUCCAUCUUGUUGGCCUGUCUGUGAGUUUCGAAUGUGGACCGACAGAGGGAAUCUGAGUGCAGUUCUACUUGGAAAACCAUCUCUCCCCAGAGUAGGACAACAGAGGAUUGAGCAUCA: 0.258 ratio
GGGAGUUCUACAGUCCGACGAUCGCCAGCCCUGCGCCUCGCGCCGUCGCGCAUGCGUCCUGGUCUUUCUCUAGAGUUGUAUAUACCGAACAUCCUGGAGUCCACCAUGAACGGACAGUUGGAUCUAAGUGGGAAGCUAAUCAUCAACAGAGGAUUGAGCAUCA: 0.108 ratio
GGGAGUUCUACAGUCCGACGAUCAAAUCACGAAACAAUGAAUCAGAAAAGCCCAGUUCUAAUUCAGAAGUGAGUUUACAAGCCGAUUUGAAAAGCAUUUUGGAGAAACAGUUUUCAAAAUCUUCCAGAGCUGCACACCAGGAUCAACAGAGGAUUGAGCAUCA: 0.227 ratio
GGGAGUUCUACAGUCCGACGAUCCAUGGGUUUUAAGUGCUUGUGGCUCACUGAAGCUUAAGUGAGGAUUUCCUUGCAAUGAGCCGAAUUUCCCUUCUCUCCCUUGUCACAGGUUUAAAAACCUCACAGCUUGUAUAAUGUAACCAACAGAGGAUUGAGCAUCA: 0.188 ratio
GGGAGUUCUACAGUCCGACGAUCCCUUCUAAUUUUGGAGAUUUUUCUCAGAAUAUCUCUACACCCAGUGAACAGCAGCAACCCUCCGCCCAGAAUUCUUCAGGAAAAACAGAAUAUAUGGCUUUUCCAAAACCUUUUGAAAGCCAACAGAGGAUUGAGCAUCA: 0.411 ratio
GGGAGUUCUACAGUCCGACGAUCUACACAGUAUUGUUCUUGUAAAACUGUGACAUUCCACAGAGCUACUGCCACAAUCCUUUCUCCGGGUGUCAGGCUCUGAAUCUCUCCAAAUGUGCUGUCUUUGGUUCCUCAUGGCUAUUCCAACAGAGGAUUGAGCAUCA: 0.208 ratio

Series 3
Target: Histone acetyltransferase KAT6A, winged helix 1, GST fusion (KAT6A, Homo sapiens, UniProt Q92794, residues 1-85)
Technique: protein binding microarray
Molecule type: double-stranded DNA, one strand shown
Sample: in vitro
Tested at: not given
Setting: 8-mer, flanks averaged, mean of 2 arrays, mostly near background
Relative to: not given
Reading: higher = stronger binding
Quantity: E-score
Residues (chain): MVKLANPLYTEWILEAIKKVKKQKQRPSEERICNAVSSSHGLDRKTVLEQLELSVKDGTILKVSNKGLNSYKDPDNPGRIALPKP
CTCTCAAA: -0.0792
CGATCTAA: -0.218
CCGGGAGA: 0.225
CTAACATA: -0.096
CATCCGCC: 0.163
CAATTCCA: -0.235
ACGCAACG: 0.235
CGTAACAG: 0.0684
CTTCCTCA: -0.0854
AGCCGACG: 0.446
CGCTTGGC: 0.297
AGCGGCAA: 0.344
AGATACGC: 0.262
AATTCAGT: -0.112
CCCCCACG: 0.0737
AATACGCT: 0.137
CCTTTTCG: -0.111
GATCTGTA: -0.128

Series 4
Target: Phosphate system positive regulatory protein PHO4, full length, GST-tagged (PHO4, Saccharomyces cerevisiae, UniProt P07270, residues 1-312)
Technique: competition protein-binding microarray
Molecule type: double-stranded DNA, one strand shown
Sample: in vitro
Tested at: 2 µM
Setting: whole 60-bp probe, lowest competitor level
Together with: Cbf1 competitor, 0.05 µM
Reading: higher = stronger binding
Quantity: fluorescence intensity
Residues (chain): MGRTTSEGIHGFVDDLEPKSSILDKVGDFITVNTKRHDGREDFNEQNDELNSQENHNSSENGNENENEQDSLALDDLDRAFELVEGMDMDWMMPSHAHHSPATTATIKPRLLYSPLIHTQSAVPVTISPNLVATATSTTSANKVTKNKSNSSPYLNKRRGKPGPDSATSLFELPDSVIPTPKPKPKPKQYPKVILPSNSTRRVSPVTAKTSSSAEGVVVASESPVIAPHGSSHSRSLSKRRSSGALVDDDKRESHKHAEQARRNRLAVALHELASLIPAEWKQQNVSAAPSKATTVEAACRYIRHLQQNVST
CATACCCAACCTTGACCAGTGGGTGAAGATATTTGTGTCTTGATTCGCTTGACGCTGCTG: 3550 a.u.
AAGTTGCTTCTTTGCCACGTGTTCCATTGAAGATTGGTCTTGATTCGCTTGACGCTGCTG: 18200 a.u.
GCGCGAAGTTTTGCTGACGTGCCAGTACCTGGGCCAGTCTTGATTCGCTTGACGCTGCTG: 4200 a.u.
GTTGCTTGCTAATTGCATGATCAAGTTGGGCCGACGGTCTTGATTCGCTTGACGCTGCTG: 4070 a.u.
CATTTGAAGGTTCGGCACGTGCTTTACCCCAAAGGTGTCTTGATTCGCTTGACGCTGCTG: 17800 a.u.
AAGGGATGGTGGCGTCACATGGGTGGTCCAAAGCAAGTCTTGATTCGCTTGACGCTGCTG: 8690 a.u.
GGTTTGTTTACAGTACGCGTGGTGAGACCATAAAGGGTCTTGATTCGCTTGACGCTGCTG: 8780 a.u.
CGATGTATCTTCCGTCACCTGCACCACCACAATTGAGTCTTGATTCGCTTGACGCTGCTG: 5480 a.u.
GTCTCTGCTTTTCCACACGTGGAAGTTCACCAAGAAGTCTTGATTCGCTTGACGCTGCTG: 13700 a.u.
ATAGACAATACTTTTCACATGCCGCATTTAGCCGCCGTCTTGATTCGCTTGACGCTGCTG: 5940 a.u.
TTGCTGTCCAGCAAAAACGTGATGGCCACTTCGGACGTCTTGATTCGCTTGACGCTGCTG: 11500 a.u.
TTTGATCTGATAGGACTCGTGCCAGCACAAGTCCTTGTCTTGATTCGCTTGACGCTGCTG: 8460 a.u.
CTTTCCCGATCTTGCGAGGTGGGTGTAGCACATTTGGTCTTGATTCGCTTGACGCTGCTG: 4340 a.u.
AAATTACTAAGTTAACACGTGTTTTACCCCGTATGAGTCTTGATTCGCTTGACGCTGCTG: 18600 a.u.
AAATTACTAAGTTGTCCCGTGGGTGACGCCGTATGAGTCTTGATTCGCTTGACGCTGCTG: 8540 a.u.
CTTCTGTAAATTTGCTTGGTGGGTGGACGCGCCCCGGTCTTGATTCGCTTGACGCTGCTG: 3870 a.u.
GTCTTGTCTCATTGAATCGTGGGTGTCCCCACTTCAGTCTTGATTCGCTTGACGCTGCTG: 7980 a.u.
AGCGTTCAATGGCGTCATGCGGCGTTGCGAAATTTCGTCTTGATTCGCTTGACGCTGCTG: 4940 a.u.
GGAGGGCAGTAGTTCCATGTGCTTCTCAGAAGAGCTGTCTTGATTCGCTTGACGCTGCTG: 8270 a.u.
GTCTTGTCTCATTCTCACGTGTTTTTCCCCACTTCAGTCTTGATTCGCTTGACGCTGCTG: 14700 a.u.
CTTCTGTAAATTTGGTCAGTGGGTGGACGCGCCCCGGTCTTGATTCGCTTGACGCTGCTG: 3950 a.u.
CTTCTGTAAATTTGTGTAGTGGGTGGACGCGCCCCGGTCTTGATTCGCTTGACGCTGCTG: 5360 a.u.
AAGCTGAAGGTGCATTGCATGACGCACTATGTGTGGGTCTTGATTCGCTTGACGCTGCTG: 7710 a.u.
CACTTTTTAAACCATCACGGCCTCTGACGTAATCGGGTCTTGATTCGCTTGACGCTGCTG: 4590 a.u.
AAAGCGGTAATTTGCACGGTGGGTGCAGATATCTATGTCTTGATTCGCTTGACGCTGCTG: 6990 a.u.

Repeated from above (series 4):
AGCGTTCAATGGCGTCATGCGGCGTTGCGAAATTTCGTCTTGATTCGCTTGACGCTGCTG: 4940 a.u.
GGAGGGCAGTAGTTCCATGTGCTTCTCAGAAGAGCTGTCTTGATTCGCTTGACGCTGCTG: 8270 a.u.
GTCTTGTCTCATTCTCACGTGTTTTTCCCCACTTCAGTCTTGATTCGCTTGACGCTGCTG: 14700 a.u.
CTTCTGTAAATTTGGTCAGTGGGTGGACGCGCCCCGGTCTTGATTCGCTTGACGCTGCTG: 3950 a.u.
CTTCTGTAAATTTGTGTAGTGGGTGGACGCGCCCCGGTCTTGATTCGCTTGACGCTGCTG: 5360 a.u.
AAGCTGAAGGTGCATTGCATGACGCACTATGTGTGGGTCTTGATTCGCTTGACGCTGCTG: 7710 a.u.
CACTTTTTAAACCATCACGGCCTCTGACGTAATCGGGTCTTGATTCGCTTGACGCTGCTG: 4590 a.u.
AAAGCGGTAATTTGCACGGTGGGTGCAGATATCTATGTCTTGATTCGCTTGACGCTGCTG: 6990 a.u.
